Published values from different studies.
Protocols differ between the studies behind these lines. ± gives the spread as reported.
BIRC2 BIR3: Baculoviral IAP repeat-containing protein 2, BIR3 (BIRC2, Homo sapiens, UniProt Q13490)
Alpha-galactosidase: Alpha-galactosidase (Coffea arabica, UniProt Q42656)
VIM-2: Metallo-beta-lactamase VIM-2 (VIM-2, Escherichia coli, UniProt Q5U7L7)
CA6: Carbonic anhydrase 6 (CA6, Homo sapiens, UniProt P23280)
BIRC3 BIR3: Baculoviral IAP repeat-containing protein 3, BIR3 (BIRC3, Homo sapiens, UniProt Q13489)
Beta-lactamase CTX-M-27: Beta-lactamase CTX-M-27 (Escherichia coli, UniProt Q840M4)
NOS3: Nitric oxide synthase 3 (NOS3, Bos taurus, UniProt P29473)
CASP7: Caspase-7 (CASP7, Homo sapiens, UniProt P55210)

SMILES | target | assay | setting | Ki
CC(C)CN(NC(=O)[C@H](CCCNC(=N)N)NC(=O)[C@H](Cc1ccc(O)cc1)NC(=O)CCCCCCC(=O)N[C@@H](Cc1ccc(O)cc1)C(=O)N[C@@H](CCCNC(=N)N)C(=O)NN(CC(C)C)C(=O)N[C@@H](CCCNC(=N)N)C(=O)N[C@@H](Cc1ccc(O)cc1)C(N)=O)C(=O)N[C@@H](CCCNC(=N)N)C(=O)N[C@@H](Cc1ccc(O)cc1)C(N)=O | NPY1R (Homo sapiens, UniProt P25929) | ligand displacement, radioligand | – | 0.574 µM
CN[C@@H](C)C(=O)N[C@H]1CN(C(=O)Cc2ccccc2)CC[C@H]2CC[C@@H](C(=O)NCc3ccc(C(F)(F)F)cc3)N2C1=O | BIRC2 BIR3 | ligand displacement, FP | – | 0.0088 µM
CCCCNC(=S)N1[C@H](CCC)[C@H](O)[C@@H](O)[C@H](O)[C@H]1CO | Alpha-galactosidase | enzyme activity, competitive inhibitor | green coffee bean enzyme, optimal pH, with: p-nitrophenyl glycopyranoside | > 2000 µM
CN[C@@H](C)C(=O)N[C@H]1CCCCNC(=O)[C@H](Cc2ccccc2)NC(=O)[C@@H]2CCCN2C(=O)[C@@H](NC(=O)[C@H](C)NC)CCCCNC(=O)[C@H](Cc2ccccc2)NC(=O)[C@@H]2CCCN2C1=O | BIRC2 BIR3 | cell-free assay, FP | – | 0.084 µM
CN(C)c1ccc2c(c1)C(=O)N(C(C(=O)O)C(C)(C)S)C2=O (stereo not drawn) | VIM-2 | enzyme activity, inhibitor | Km 8 µM, with: chromacef 25 µM | > 3 µM
COCCOc1cc2ncnc(Nc3cccc(-c4cn(Cc5ccc(S(N)(=O)=O)cc5)nn4)c3)c2cc1OCCOC | CA6 | enzyme activity, inhibitor, stopped-flow | – | 0.0513 µM
CC[C@H](C)[C@H](NC(=O)[C@@H]1CSSC[C@H](NC(=O)[C@H](Cc2ccc(O)cc2)NC(=O)CN)C(=O)N[C@@H](CO)C(=O)N[C@@H](CCCNC(=N)N)C(=O)N[C@@H](CO)C(=O)N[C@@H](Cc2ccc(O)cc2)C(=O)N2CCC[C@H]2C(=O)N2CCC[C@H]2C(=O)N[C@@H](C(C)C)C(=O)N1)C(=O)N1CCC[C@H]1C(=O)N[C@@H](CC(=O)O)C(=O)O | Mannan-binding lectin serine protease 2 (Homo sapiens, UniProt O00187) | – | with: 250 µM Z-L-Lys-SBzl substrate | 0.3 ± 0.01 µM
CN[C@@H](C)C(=O)N[C@H]1CN(C(=O)Cc2ccccc2)CC[C@H]2CC[C@@H](C(=O)NCc3ccc(OC)cc3)N2C1=O | BIRC3 BIR3 | ligand displacement, FP | – | 0.0473 µM
COCCOc1cc2ncnc(Nc3cccc(-c4cn(Cc5ccc(C(=O)NCCc6ccc(S(N)(=O)=O)cc6)cc5)nn4)c3)c2cc1OCCOC | CA6 | enzyme activity, inhibitor, stopped-flow | – | 0.0281 µM
O=C(Nc1cccc(-c2nn[nH]n2)c1)c1cc(-c2cc[nH]n2)cc(C(F)(F)F)c1 | Beta-lactamase CTX-M-27 | enzyme activity, inhibitor, absorbance | pH 7 | 1.69 µM
CC(O)[C@H](NC(=O)/C=C/c1ccc(O)c(O)c1)C(=O)NCCCOc1c(-c2ccc(O)c(O)c2)oc2cc(O)cc(O)c2c1=O (stereo partly drawn) | Pancreatic alpha-amylase (Homo sapiens, UniProt P04746) | inhibitor | pH 7 | 50 ± 10 µM
CN[C@@H](C)C(=O)N[C@H]1CN(C(=O)Cc2ccccc2)CC[C@H]2CC[C@@H](C(=O)NCc3ccccc3Cl)N2C1=O | BIRC2 BIR3 | ligand displacement, FP | – | 0.0208 µM
O=C(O)c1ccc(OCCCCCCCCCCOc2ccc(C(=O)O)cc2)cc1 | Dihydrofolate reductase type 2 (Escherichia coli, UniProt P00383) | enzyme activity, inhibitor | pH 7 | 8.8 ± 2.6 µM
O=C(Nc1cccc(-c2nn[nH]n2)c1)c1cc(-c2ccoc2)cc(C(F)(F)F)c1 | Beta-lactamase CTX-M-27 | enzyme activity, inhibitor, absorbance | pH 7 | 3.02 µM
CNCc1c(OCc2ccc(F)cc2)ccc2ccccc12 | SLC6A3 (Homo sapiens, UniProt Q01959) | ligand displacement in cells, radioligand | – | 3.06 µM
Cc1cc(N)nc(CC2CNCC2OCCNCC(F)(F)c2cccc(F)c2)c1 (racemic) | NOS3 | enzyme activity, inhibitor, hemoglobin capture | – | 120 µM
CN[C@@H](C)C(=O)N[C@H]1CN(C(=O)Cc2ccccc2)CC[C@H]2CC[C@@H](C(=O)NCc3ccccc3Br)N2C1=O | BIRC3 BIR3 | ligand displacement, FP | – | 0.0581 µM
COCCOc1cc2ncnc(Nc3cccc(-c4cn(Cc5ccc(C(=O)Nc6ccc(S(N)(=O)=O)cc6)cc5)nn4)c3)c2cc1OCCOC | CA5A (Homo sapiens, UniProt P35218) | enzyme activity, inhibitor, stopped-flow | – | 0.098 µM
CN[C@@H](C)C(=O)N[C@H]1CN(C(=O)Cc2ccccc2)CC[C@H]2CC[C@@H](C(=O)NCc3ccc(C(N)=O)cc3)N2C1=O | BIRC2 BIR3 | ligand displacement, FP | – | 0.274 µM
CC(=O)N[C@@H](Cc1ccccc1)C(=O)N[C@@H](CC(=O)O)C(=O)N[C@H](C(=O)N1CCC[C@H]1C(=O)N[C@H](C=O)CC(=O)O)C(C)C | CASP7 | enzyme activity, inhibitor, fluorescence | pH 7 | 0.00851 µM
CCc1ccc(CNC(=O)[C@@H]2CC[C@@H]3CCN(C(=O)Cc4ccccc4)C[C@H](NC(=O)[C@H](C)NC)C(=O)N32)cc1 | BIRC3 BIR3 | ligand displacement, FP | – | 0.022 µM
CC(=O)N[C@@H](C)C(=O)N[C@@H](CC(=O)O)C(=O)N[C@@H](CCCNC(=N)N)C(=O)N[C@H](C(=O)N[C@H](C=O)CC(=O)O)[C@@H](C)O | CASP7 | enzyme activity, inhibitor, fluorescence | pH 7 | 0.117 µM
Cc1cc(N)nc(C[C@@H]2CNC[C@@H]2OCCCCCc2cccc(F)c2)c1 | NOS3 | enzyme activity, inhibitor | pH 7.4 | 33.8 µM
O=C(Nc1cccc(-c2nn[nH]n2)c1)c1cc(-n2ccnc2)cc(C(F)(F)F)c1 | Beta-lactamase CTX-M-27 | enzyme activity, inhibitor, absorbance | pH 7 | 3.63 µM
CNC(=O)C(CS)N1C(=O)c2ccc(N(C)C)cc2C1=O (stereo not drawn) | VIM-2 | enzyme activity, inhibitor | Km 8 µM, with: chromacef 25 µM | 0.56 ± 0.05 µM
O=C1c2c(O)cccc2[C@H]([C@@H]2O[C@H](CO)[C@@H](O)[C@H](O)[C@H]2O)c2cc(CO)cc(O)c21 | IDO1 (Homo sapiens, UniProt P14902) | uncompetitive inhibitor, Lineweaver-Burk plot | – | 68.6 µM
CCCCCCCCN=C1SC[C@@H]2[C@@H](O)[C@H](O)[C@@H](O)[C@@H](CCCCCCCC)N12 | Alpha-galactosidase | enzyme activity, competitive inhibitor | green coffee bean enzyme, optimal pH, with: p-nitrophenyl glycopyranoside | > 2000 µM

For quick reference, copied from above:
SMILES | target | assay | setting | Ki
COCCOc1cc2ncnc(Nc3cccc(-c4cn(Cc5ccc(C(=O)Nc6ccc(S(N)(=O)=O)cc6)cc5)nn4)c3)c2cc1OCCOC | CA5A (Homo sapiens, UniProt P35218) | enzyme activity, inhibitor, stopped-flow | – | 0.098 µM
CN[C@@H](C)C(=O)N[C@H]1CN(C(=O)Cc2ccccc2)CC[C@H]2CC[C@@H](C(=O)NCc3ccc(C(N)=O)cc3)N2C1=O | BIRC2 BIR3 | ligand displacement, FP | – | 0.274 µM
